Assay results pooled from the literature.
Numbered parts are unrelated; each lists some results of a single study.

Set 1 — method: RNA Bind-n-Seq; molecule type: RNA; matrix: in vitro; concentration: 200 nM; setting: whole 134-nt RNA, ends assumed; together with: 150 mM KCl; reference: input library; direction: higher = stronger binding
Target: Ras GTPase-activating protein-binding protein 1, full length (G3BP1, Homo sapiens, UniProt Q13283)
Sequence of UniProt Q13283 (whole entry, looked up): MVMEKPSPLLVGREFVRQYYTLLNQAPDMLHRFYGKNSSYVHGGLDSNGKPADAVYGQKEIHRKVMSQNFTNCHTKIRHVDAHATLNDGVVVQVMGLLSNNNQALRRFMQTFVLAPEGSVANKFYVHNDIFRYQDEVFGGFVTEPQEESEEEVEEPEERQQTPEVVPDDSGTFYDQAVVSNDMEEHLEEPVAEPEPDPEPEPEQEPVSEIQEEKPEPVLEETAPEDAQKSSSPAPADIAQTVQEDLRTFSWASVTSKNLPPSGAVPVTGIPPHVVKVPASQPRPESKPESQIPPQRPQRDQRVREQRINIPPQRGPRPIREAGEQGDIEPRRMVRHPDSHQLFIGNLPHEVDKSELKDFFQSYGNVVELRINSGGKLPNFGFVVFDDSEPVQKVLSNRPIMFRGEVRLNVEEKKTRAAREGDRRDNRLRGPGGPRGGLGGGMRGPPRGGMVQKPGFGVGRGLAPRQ
`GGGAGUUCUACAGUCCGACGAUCAGUCCUGUGCUACACAUCGUAUGUACCGAAUCGGGGAAAAAAAGGGGUGGGGAGGGGAAAGUAUUAUGUUACGCCGUUCGGAUCUGCACUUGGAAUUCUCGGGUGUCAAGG` has a log2 enrichment of 0.437.
The log2 enrichment of `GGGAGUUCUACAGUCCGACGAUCUCCUGUGCUACACAUCGUAUGUACCGAAUCGGGUUUUUUUGGGAAAAAGGGAAAAAGGGAAAGUAUUAUGUUACGCCGUUCGGAUCUGCAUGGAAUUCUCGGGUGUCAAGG` is reported as -0.499.
`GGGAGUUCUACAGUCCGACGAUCACCAUGCAGGUGGGCAUCUUUGGGAAGUGGGGAAAGGGGGGGAUAGGGAGGGGGGUAACACUUUGGGAACAGGUGGUCCCAGGUCGUUUCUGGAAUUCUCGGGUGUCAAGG` has a log2 enrichment of 1.28.
With `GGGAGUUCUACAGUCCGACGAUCGCAGGAAGUAAAAACAAAUGGAAAUGCUUCGGAUAGUGGCAGGGGUGGGGGUUGCUAAGGAAAGGGUGUGAUGGGAGUGGGUAAAGAGUUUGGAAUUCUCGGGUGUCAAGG` the log2 enrichment was 0.886.
`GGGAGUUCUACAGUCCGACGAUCCUCAAGUCCUGUGCUACACAUCGUAUGUACCGAAUCGGAAGGGGAAGGGAAGGGAAAGUAUUAUGUUACGCCGUUCGGAUCUGCACUUCCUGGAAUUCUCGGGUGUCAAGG` has a log2 enrichment of 1.3.
`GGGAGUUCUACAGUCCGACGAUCCACAGACAACACGCACCCACACAGACACAGAGGGAAGGGGUUGGGAUGGGGACAGGGUGCACAGCAGGGCGGGGUAGGACCCCAGCCGCUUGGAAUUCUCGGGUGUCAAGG` has a log2 enrichment of 1.85.
The log2 enrichment of `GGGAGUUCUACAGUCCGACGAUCGUCCUGUGCUACACAUCGUAUGUACCGAAUCGGGGCCCCCGGGCCCCCGGCCCCCGGGGAAAGUAUUAUGUUACGCCGUUCGGAUCUGCAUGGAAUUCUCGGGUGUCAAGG` is reported as -0.532.
For `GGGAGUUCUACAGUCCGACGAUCGCAGGAAGUAAAAACAAAUGGUAAUGCUUCGGAUAGUGGCAGGGGUGGGGGUUGCUAAGGAAAGGGUGGGAUGGGAGUGGGUAAAGAGUUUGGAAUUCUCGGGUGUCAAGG`, the log2 enrichment was 1.05.
For `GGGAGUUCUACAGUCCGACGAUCCUGUGCUACACAUCGUAUGUACCGAAUCGGGGCCCCCCCGGGCCCCCCCGGGCCCCCCCGGAAAGUAUUAUGUUACGCCGUUCGGAUCUGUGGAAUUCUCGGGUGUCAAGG`, the log2 enrichment was -0.751.
For `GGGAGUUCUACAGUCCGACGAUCGUCCUGUGCUACACAUCGUAUGUACCGAAUCGGGGUUUUUUUGGGGAAAGGGGAGGGGAAAGUAUUAUGUUACGCCGUUCGGAUCUGCACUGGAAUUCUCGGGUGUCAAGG`, the log2 enrichment was 0.306.

Set 2 — method: protein-binding microarray; molecule type: double-stranded DNA, one strand shown; matrix: in vitro; concentration: 2200 nM top; setting: 60-bp whole probe; together with: salmon DNA 0.4 mg/ml; reference: random background probes; direction: higher = stronger binding; shared flanks, not repeated: GCCTAGCAC … GTCTTGATTCGCTTGACGCTGCTG
Target: Interferon regulatory factor 7, full length, phosphomimetic (IRF7, Homo sapiens, UniProt Q92985, residues 1-503, S471D/S472D/S475D/S476D/S477D/S483D/S484D/S487D)
Target sequence (chain): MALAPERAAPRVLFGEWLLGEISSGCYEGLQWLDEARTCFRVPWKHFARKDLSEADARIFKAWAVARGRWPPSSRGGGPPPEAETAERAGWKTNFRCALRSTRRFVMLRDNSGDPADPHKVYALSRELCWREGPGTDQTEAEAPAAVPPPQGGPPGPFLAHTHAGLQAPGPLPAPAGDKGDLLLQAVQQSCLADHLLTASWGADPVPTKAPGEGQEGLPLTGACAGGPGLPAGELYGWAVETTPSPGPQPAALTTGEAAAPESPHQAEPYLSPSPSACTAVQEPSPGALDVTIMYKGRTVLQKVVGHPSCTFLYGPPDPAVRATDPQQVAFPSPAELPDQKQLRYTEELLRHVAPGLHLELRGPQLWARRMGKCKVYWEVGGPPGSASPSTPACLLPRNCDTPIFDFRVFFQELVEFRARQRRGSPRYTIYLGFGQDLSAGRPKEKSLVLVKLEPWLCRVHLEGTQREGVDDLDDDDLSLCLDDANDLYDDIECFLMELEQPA
`TTAGGACTGGGTCTCGGTAAGTGCTAG`: “fitted relative affinity” -0.544 z-score.
`GAGGATTCCAGTTTCGAGACGTGCTAG` — result for “fitted relative affinity”: 4.29 z-score.
Under “fitted relative affinity”, `TTAGGTTTCGGGTATTGGTTAGTGCTA` is recorded as 5.5 z-score.
For `GACGAACTGCTACTGCTGACGTGCTAG`, “fitted relative affinity” read -0.0548 z-score.
For `GACGAACTGGGGACGGGAGACGTGCTA`, “fitted relative affinity” read -0.326 z-score.
For `GACGATTTCGGTTCCGGGACGTGCTAG`, “fitted relative affinity” read 6.55 z-score.
Under “fitted relative affinity”, `TAGTTTTCAATTTTTGCATCGTGCTAG` is recorded as 2.29 z-score.
`GACGGTATCATTATCCTGACGTGCTAG`: “fitted relative affinity” 0.61 z-score.
For `TCACATGTAAATAATCAGACTGTGCTA`, “fitted relative affinity” read -0.00202 z-score.
`TGGTTTTCCTTATTGCTTCCTGTGCTA` — result for “fitted relative affinity”: 2.99 z-score.
`TCACATTTTAGTTTTCAACTGTGCTAG`: “fitted relative affinity” 2.18 z-score.
`GACGAACTGGGGTTTCGAGATGTGCTA` — result for “fitted relative affinity”: 1.39 z-score.
`TTAGATATCGGGTTTCGATTCGTGCTA`: “fitted relative affinity” 6.71 z-score.
For `TTAGAACTGAGTATCAATTAGTGCTAG`, “fitted relative affinity” read -0.813 z-score.
`GACGGTCTCCTCCTCCTGACGTGCTAG`: “fitted relative affinity” 0.684 z-score.
`GACGGTCTCCTTTTCTTGACGTGCTAG` — result for “fitted relative affinity”: 1.34 z-score.

Set 3 — method: protein binding microarray; molecule type: double-stranded DNA, one strand shown; matrix: in vitro; concentration: not given; reference: not given; direction: higher = stronger binding
Target: Histone acetyltransferase KAT6A, winged helix 1, GST fusion (KAT6A, Homo sapiens, UniProt Q92794, residues 1-85)
Setting: 8-mer, flanks averaged, mean of 2 arrays, mostly near background
Residues (chain): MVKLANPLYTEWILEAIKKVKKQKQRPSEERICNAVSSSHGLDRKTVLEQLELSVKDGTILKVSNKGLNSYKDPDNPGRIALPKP
`CCTGCCAC` gave an E-score of -0.1.
`ACGGATTC` gave an E-score of 0.215.
`GGTTCAAA` has an E-score of 0.0523.
`CCAGCGAA` gave an E-score of -0.125.
`AGTTACCC` has an E-score of -0.179.
`CACGCAAG` gave an E-score of -0.0351.
For `ACACGACT`, the E-score was -0.0071.
With `GTCAGAAA` the E-score was -0.276.
The E-score of `ATGCTCTA` is reported as -0.0492.
`GCGACCAC` gave an E-score of 0.304.
`GCTGTGTA` has an E-score of 0.043.
With `CAAGGCGG` the E-score was 0.224.
`AGCTTCCT` has an E-score of -0.064.
With `GCACAGAA` the E-score was -0.0594.
For `CGTAATTC`, the E-score was 0.019.
`CTTGCGAC` gave an E-score of -0.0498.
With `AAAAACCC` the E-score was -0.0842.
The E-score of `CTCGACAC` is reported as 0.045.
For `AGAGCGTG`, the E-score was 0.268.
`AACGGCCT` has an E-score of 0.208.
`AGCTTCAC` gave an E-score of -0.184.
With `CAGCTCCG` the E-score was 0.111.
The E-score of `CGGTTTAA` is reported as 0.122.
With `CCCTTGAC` the E-score was 0.0429.
`GGGCTACA` gave an E-score of -0.0588.

Set 4 — method: RNA Bind-n-Seq; molecule type: RNA; matrix: in vitro; concentration: 20 nM; setting: 6-mer, flanks averaged, single round; together with: 150 mM KCl; reference: input library; direction: higher = stronger binding
Target: TAR DNA-binding protein 43, full length, His tag (TARDBP, Homo sapiens, UniProt Q13148, residues 1-414)
`GGAGCG`: “6-mer enrichment (R)” 3.91.
`CGCCCG`: “6-mer enrichment (R)” 0.748.
For `CUUCUC`, “6-mer enrichment (R)” read 0.543.
Under “6-mer enrichment (R)”, `CGAUGG` is recorded as 1.38.
For `GCUAGG`, “6-mer enrichment (R)” read 1.73.
`AUAAUA`: “6-mer enrichment (R)” 1.26.
`GUACUA`: “6-mer enrichment (R)” 0.628.
For `AUCUUG`, “6-mer enrichment (R)” read 0.619.
Under “6-mer enrichment (R)”, `CAAGAG` is recorded as 1.05.
`UAUCUC`: “6-mer enrichment (R)” 0.535.
For `AUCGGA`, “6-mer enrichment (R)” read 0.803.
`UGUAUG` — result for “6-mer enrichment (R)”: 1.38.
For `UACGUA`, “6-mer enrichment (R)” read 0.65.
`UCUAAG`: “6-mer enrichment (R)” 0.644.
Under “6-mer enrichment (R)”, `UUCCCU` is recorded as 0.607.
Under “6-mer enrichment (R)”, `CAAGUG` is recorded as 0.964.

Some of these lines once more (set 2):
`GAGGATTCCAGTTTCGAGACGTGCTAG` — result for “fitted relative affinity”: 4.29 z-score.
Under “fitted relative affinity”, `TTAGGTTTCGGGTATTGGTTAGTGCTA` is recorded as 5.5 z-score.
For `GACGAACTGCTACTGCTGACGTGCTAG`, “fitted relative affinity” read -0.0548 z-score.
For `GACGAACTGGGGACGGGAGACGTGCTA`, “fitted relative affinity” read -0.326 z-score.
For `GACGATTTCGGTTCCGGGACGTGCTAG`, “fitted relative affinity” read 6.55 z-score.
